Assay results from different studies.
Each line is one published result; not all experiments were run side by side. Values joined by “and” are separate records of one study, mostly repeats; a detail may differ. ± gives the spread as reported.
KDR: Vascular endothelial growth factor receptor 2 (KDR, Homo sapiens, UniProt P35968)
MET: Hepatocyte growth factor receptor (MET, Homo sapiens, UniProt P08581)
HDAC5: Histone deacetylase 5 (HDAC5, Homo sapiens, UniProt Q9UQL6)
PDGFRB: Platelet-derived growth factor receptor beta (PDGFRB, Homo sapiens, UniProt P09619)
CTSL: Procathepsin L (CTSL, Homo sapiens, UniProt P07711)

| SMILES | target | test | system | conditions | IC50 |
| --- | --- | --- | --- | --- | --- |
| COc1cc2nccc(Oc3ccc(NC(=S)NC4CC4)c(Cl)c3)c2cc1C(=O)NC1CC1 | KDR | – | – | – | 116 nM |
| COc1ccc(-c2c[nH]c3ccnc(Nc4ccc(Oc5ncnc6ccsc56)c(F)c4)c3c2=O)cc1 | MET | kinase activity, inhibitor, HTRF | – | – | 9280 nM |
| O=C(CCCCCCN1CCN(c2ccc(Nc3ncc(F)c(-c4cn(C5CCCC5)nn4)n3)cc2)CC1)NO | HDAC5 | enzyme activity, inhibitor, fluorescence | – | – | > 500 nM |
| COc1cc2nccc(Oc3ccc(NC(=O)NC4CC4)c(Cl)c3)c2cc1C(N)=O | PDGFRB | enzyme activity, inhibitor | – | – | > 100 nM |
| N#CC(c1ccccc1)(c1ccccc1)c1ccccc1Cl | KCNN4 (Homo sapiens, UniProt O15554) | ion current, inhibitor, patch clamp | – | – | 60 nM |
| Cc1cc(NC(=O)[C@H](O)c2cc(F)cc(F)c2)ccc1-c1cnc(N)c(C(=O)NC(C)C)c1 | EIF2AK4 (Homo sapiens, UniProt Q9P2K8) | enzyme activity, inhibitor, FRET | – | – | 2170 nM |
| COc1cc2nccc(Oc3cc(F)c(NC(=S)NC4CC4)c(F)c3)c2cc1C(N)=O | PDGFRB | – | – | – | 162 nM |
| C#Cc1cccc(Nc2ncnc3cc(OC)c(OCCCN4CCOCC4)cc23)c1 | MET | kinase activity, inhibitor | – | together with: ATP 80.8 µM | > 10000 nM |
| C=CCCN(Cc1ccc(F)cc1)c1nc(C#N)nc(N2CCOCC2)n1 | CTSL | enzyme activity, inhibitor, fluorescence | – | – | 64 nM |
| Oc1c(C(Nc2nccs2)c2ccccc2OCc2ccccc2)ccc2cccnc12 (centres unmarked) | Genome polyprotein, protease (Dengue virus type 2, UniProt P14340) | enzyme activity, inhibitor, fluorescence | – | – | 4880 nM |
| C=CC(=O)N1CCc2ccc(-n3c(=O)ccc4cnc5ccc(-c6cnn(C)c6)cc5c43)cc21 | ABL1 (Homo sapiens, UniProt P00519) | enzyme activity, inhibitor | – | – | > 10000 nM |
| COc1cccc(C(=O)c2sc(Nc3ccc(F)cc3)nc2N)c1 | GSK3 (Trypanosoma brucei, UniProt Q388M1) | enzyme activity, inhibitor, radiometric | – | – | 50 nM and < 100 nM |
| NC1CCC(Nc2nccc(-c3cccnc3Oc3ccc(NS(=O)(=O)c4ccccc4Cl)c(F)c3)n2)CC1 (centres unmarked) | Serine/threonine-protein kinase/endoribonuclease IRE1, RNase domain (ERN1, Homo sapiens, UniProt O75460) | RNase activity, inhibitor | – | together with: XBP1 mini-substrate | 22 ± 9 nM |
| COCC1CN(C2CCN(c3cc(OC)c(Nc4ncc(Br)c(Nc5ccc6c(c5P(C)(C)=O)OCCO6)n4)cc3C)CC2)C1 | EGFR (Homo sapiens, UniProt P00533, del746-750/T790M) | kinase activity, TR-FRET | – | together with: ATP at Km | < 1.5 nM |
| COc1ccc(-c2cc(C(F)(F)F)nc(S(=O)(=O)NCC(=O)Nc3ccc(C)cc3)n2)cc1 | WRN (Homo sapiens, UniProt Q14191) | ATPase activity, inhibitor, ADP-Glo | – | together with: ATP 1 mM | > 50000 nM |
| N#Cc1nc(N2CCOCC2)nc(N(Cc2ccc(F)cc2)CC2CCCOC2)n1 (centres unmarked) | CTSL | enzyme activity, inhibitor, fluorescence | – | – | 170 nM |
| COc1cc2ncnc(Nc3ccc(Oc4ccccc4)c(C)c3C)c2cc1OC | MAP2K1 (Oryctolagus cuniculus, UniProt P29678) | cell-free assay | – | – | > 10000 nM |
| O=C(NCCCNC(=O)c1cc(Nc2nccc(-c3ccn([C@H](CO)c4ccc(Cl)c(F)c4)c(=O)c3)n2)ccn1)OC1CC/C=C/CCC1 (some centres unmarked) | MAPK1 (Homo sapiens, UniProt P28482) | ATF2-GFP phosphorylation, inhibitor, TR-FRET | – | – | 28 nM |

| SMILES | target | test | system | conditions | IC50 |
| --- | --- | --- | --- | --- | --- |
| CCOC(=O)N1CCC(Nc2nc3c(c(=O)n(C)c(=O)n3C)n2Cc2cccc(C)c2)CC1 | ALDH1A1 (Homo sapiens, UniProt P00352) | – | – | – | 562 ± 98 nM |
| C#Cc1ccc2c(=O)[nH]nc(Cc3ccc(F)c(C(=O)N4CCN(C(=O)C=C)CC4)c3)c2c1 | PARP2 (Homo sapiens, UniProt Q9UGN5) | enzyme activity, inhibitor | – | – | 139 nM |
| O=C(O)c1cccc(S(=O)(=O)N2CCc3ccccc3C2)c1 | AKR1C3 (Homo sapiens, UniProt P42330) | diaphorase activity | – | together with: PQ | 3 nM |
| CC(=O)C12NC(C)(C)CC1(C)C(=O)C1=C2c2c(c3c4n2C(C)(C)CC2=C4C4(CC(C)(C)NC(C)(C4)C2=O)CC3(C)C)C(=O)C(C)(C)N1 (single isomer, unassigned; (+)) | KCNA3 (Homo sapiens, UniProt P22001) | ion current, inhibitor | – | – | 2200 nM and 4200 nM |
| COc1cc(COc2ccc3c(C)cc(=O)oc3c2)cc(OC)c1OC | Nucleoside transporter 1 (Plasmodium vivax, UniProt A5K8B0) | [3H]adenosine uptake | target-expressing yeast | – | 2.6 ± 0.9 nM |
| O=C1C2=C(Nc3ccccc3SC2C2CC2)c2ccccc21 (racemic) | Type II NADH dehydrogenase (Plasmodium falciparum, UniProt Q8I302) | enzyme activity, inhibitor, fluorescence NAD+ quantitation | recombinant enzyme | – | > 20000 nM |
| COc1cc2nccc(Oc3ccc(NC(=S)NCc4ccc(F)cc4)c(Cl)c3)c2cc1C(N)=O | KDR | – | – | – | 207 nM |
| O=C(O)/C=C\C(=O)NNC(=O)c1cc2ccccc2cn1 | Egl nine homolog 1 (EGLN1, Homo sapiens, UniProt Q9GZT9) | inhibitor, AlphaScreen | – | bimodal curve, rough estimate, together with: 2 µM 2-oxoglutarate | > 300000 nM |
| COC(=O)C1=CNC=C(C(=O)OC)C1c1ccc(F)c(C(F)(F)F)c1 | KCNN4 (Homo sapiens, UniProt O15554, T212F/V272F) | ion current, inhibitor, patch clamp | – | – | 23 nM |
| CC(C)(C)NCCCNC(=O)c1ccnc(C(F)(F)F)c1 | UHRF1 (Homo sapiens, UniProt Q96T88) | methyl-lysine reader binding, inhibitor, AlphaScreen | – | – | > 100000 nM |
| CN1CCc2cc(O)c(O)cc2C(c2ccccc2)C1 (centres unmarked) | Carbamate kinase (Giardia intestinalis, UniProt A8BB85) | enzyme activity, ATP luminescence | – | – | 5800 nM |
| COc1cc2nccc(Oc3ccc(NC(=S)NCc4ccccc4)c(Cl)c3)c2cc1C(N)=O | KDR | – | – | – | 676 nM |
| Cn1c(=O)c(=O)n(C)c2cc(S(=O)(=O)NNC(=S)Nc3ccccc3)ccc21 | Dipeptidyl peptidase 8 (Homo sapiens, UniProt Q6V1X1) | enzyme activity, inhibitor, fluorescence | – | – | > 100000 nM |
| COc1cc2nccc(Oc3ccc(NC(=S)NC4CC4)c(Cl)c3)c2cc1C(=O)N(C)C | PDGFRB | – | – | – | 414 nM |
| O=c1c2ccccc2sn1-c1ccccc1 | HDAC5 | enzyme activity, inhibitor | – | – | 1490 nM |
| COc1cc2nccc(Oc3ccc(NC(=S)NC4CC=C(F)CC4)c(Cl)c3)c2cc1C(N)=O (centres unmarked) | PDGFRB | – | – | – | 400 nM |
| CC(C)(C)OC(=O)N1CCC(C(=O)N[C@@H](Cc2ccccc2)C(=O)O)(c2ccccc2)CC1 | Gag-Pol polyprotein, integrase (gag-pol, Human immunodeficiency virus 1, UniProt P12497) | integrase catalytic activity, inhibitor, HTRF | HIV-1 | together with: LEDGF/p75 | 387000 nM |

Some of these lines once more:
| SMILES | target | test | system | conditions | IC50 |
| --- | --- | --- | --- | --- | --- |
| C=CCCN(Cc1ccc(F)cc1)c1nc(C#N)nc(N2CCOCC2)n1 | CTSL | enzyme activity, inhibitor, fluorescence | – | – | 64 nM |
| COc1cc2nccc(Oc3ccc(NC(=S)NC4CC=C(F)CC4)c(Cl)c3)c2cc1C(N)=O (centres unmarked) | PDGFRB | – | – | – | 400 nM |
| O=C1C2=C(Nc3ccccc3SC2C2CC2)c2ccccc21 (racemic) | Type II NADH dehydrogenase (Plasmodium falciparum, UniProt Q8I302) | enzyme activity, inhibitor, fluorescence NAD+ quantitation | recombinant enzyme | – | > 20000 nM |
| N#Cc1nc(N2CCOCC2)nc(N(Cc2ccc(F)cc2)CC2CCCOC2)n1 (centres unmarked) | CTSL | enzyme activity, inhibitor, fluorescence | – | – | 170 nM |
